Published values pooled from the literature.
Every numbered part comes from another study and shows a few of its results, in no order.

Block 1
Target: Cyclic AMP-responsive element-binding protein 1, full length (CREB1, Homo sapiens, UniProt P16220, residues 1-327)
UniProt P16220, sequence (whole entry, looked up): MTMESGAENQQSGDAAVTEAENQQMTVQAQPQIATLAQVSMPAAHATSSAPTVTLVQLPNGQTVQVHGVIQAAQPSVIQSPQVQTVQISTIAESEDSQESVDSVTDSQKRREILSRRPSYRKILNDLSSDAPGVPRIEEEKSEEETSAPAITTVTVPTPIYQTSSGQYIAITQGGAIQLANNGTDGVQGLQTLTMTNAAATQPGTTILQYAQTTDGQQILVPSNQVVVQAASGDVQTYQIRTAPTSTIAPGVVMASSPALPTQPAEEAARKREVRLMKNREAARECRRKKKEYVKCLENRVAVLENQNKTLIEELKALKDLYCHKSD
Technique: protein-binding microarray
Molecule type: hairpin DNA
Sample: in vitro
Tested at: not given
Notes: whole hairpin DNA, median over replicate spots
Baseline: not given
Direction: higher = stronger binding
With `GAGGCCGACGTCGTCGTGCCTCCTGGCACGACGACGTCGGCCTCACACTC (5mC at 9 15 29 35)` the median fluorescence was 3120 a.u.
The median fluorescence of `GAGGCCGACGACGTAGTGCCTCCTGGCACTACGTCGTCGGCCTCACACTC (5mC at 9 29 35)` is reported as 7810 a.u.
`GAGGCCCGCTGACGTCAGCCTCCTGGCTGACGTCAGCGGGCCTCACACTC` has a median fluorescence of 14900 a.u.
`GAGGCCCGCTGACGTCAGCCTCCTGGCTGACGTCAGCGGGCCTCACACTC (5mC at 37)` has a median fluorescence of 14000 a.u.
`GAGGCCGGATGCGGTCAGCCTCCTGGCTGACCGCATCCGGCCTCACACTC (5mC at 12 32)` gave a median fluorescence of 2700 a.u.
`GAGGCCGACGACGTCCTGCCTCCTGGCAGGACGTCGTCGGCCTCACACTC (5mC at 9 15 35)` has a median fluorescence of 3040 a.u.
The median fluorescence of `GAGGCCGCGTGACGTCAGCCTCCTGGCTGACGTCACGCGGCCTCACACTC (5mC at 8)` is reported as 22800 a.u.
With `GAGGCCGACGACCTCGTGCCTCCTGGCACGAGGTCGTCGGCCTCACACTC (5mC at 9 15 29 35)` the median fluorescence was 2600 a.u.
`GAGGCCGACTACGTCGTGCCTCCTGGCACGACGTAGTCGGCCTCACACTC (5mC at 9 15 29)` has a median fluorescence of 6830 a.u.
The median fluorescence of `GAGGCCGACGACGTCGGGCCTCCTGGCCCGACGTCGTCGGCCTCACACTC (5mC at 9 15 29 35)` is reported as 3570 a.u.
With `GAGGCCGGCTCGCGTCAGCCTCCTGGCTGACGCGAGCCGGCCTCACACTC (5mC at 33)` the median fluorescence was 4590 a.u.
`GAGGCCGGCTGCCGTCAGCCTCCTGGCTGACGGCAGCCGGCCTCACACTC (5mC at 12)` gave a median fluorescence of 2910 a.u.
The median fluorescence of `GAGGCCGGCGACGTCGTGCCTCCTGGCACGACGTCGCCGGCCTCACACTC (5mC at 9 15 29 35)` is reported as 4330 a.u.
With `GAGGCCGGATGACGTGAGCCTCCTGGCTCACGTCATCCGGCCTCACACTC` the median fluorescence was 9670 a.u.
`GAGGCCGGCTGACGTCAGCCTCCTGGCTGACGTCAGCCGGCCTCACACTC (5mC at 37)` has a median fluorescence of 12700 a.u.
`GAGGCCGACGACGTCGCGCCTCCTGGCGCGACGTCGTCGGCCTCACACTC (5mC at 9 15 29 35)` has a median fluorescence of 4470 a.u.

Block 2
Target: RING finger protein unkempt homolog, zinc fingers 1-6, GST-SBP tag (UNK, Homo sapiens, UniProt Q9C0B0, residues 30-357)
UniProt Q9C0B0, sequence (30-357, looked up): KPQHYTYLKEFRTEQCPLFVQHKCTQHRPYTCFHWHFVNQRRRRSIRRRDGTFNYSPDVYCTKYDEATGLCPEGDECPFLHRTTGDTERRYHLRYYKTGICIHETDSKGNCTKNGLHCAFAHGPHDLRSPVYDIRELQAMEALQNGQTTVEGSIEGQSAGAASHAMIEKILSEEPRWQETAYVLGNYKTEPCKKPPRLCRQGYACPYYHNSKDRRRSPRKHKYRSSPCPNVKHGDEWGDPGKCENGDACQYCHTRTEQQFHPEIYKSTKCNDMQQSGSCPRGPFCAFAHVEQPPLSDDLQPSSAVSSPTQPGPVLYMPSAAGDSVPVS
Technique: RNA Bind-n-Seq
Molecule type: RNA
Sample: in vitro
Tested at: not given
Notes: RNA with constant flanks, human and mouse sites, ends assumed
Baseline: input RNA pool
Direction: higher = stronger binding
`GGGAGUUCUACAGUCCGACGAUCCUAAACUGUCAUUCACAACUUGGCUACACAUAGACUCUAGUCAGUUUUGUCUCCAGAACCUUAGGCUUUUGUAUUUUUUAAUUUUAAUUUCACUGUUAAUCCUUAUUGUCUUUUUUAUUACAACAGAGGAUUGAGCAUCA` has a bound/input enrichment of 83.5 ratio.
`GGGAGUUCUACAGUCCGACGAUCUAUUUAACGACAUAUCCAUGAGAGGAAGGGAUAACAGAUAGUGUGUGCUUGCCUCUGAAAAGUCUCCAUUUUCAGCAGCUUCAAUGGCUUUCUGUGCAAUAUAGUUCCUCAGGACGUACUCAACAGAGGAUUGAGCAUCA` gave a bound/input enrichment of 0.32 ratio.
With `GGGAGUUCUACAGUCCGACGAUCUCAUUGGGUUACUCCUAUUAUCAAGUAGCUGGAAUUGUGAAGGUUGAGUAGUUAGAUCUUUAGCUUUUAUUCAUUAUUUUUUGUAUUACUCUCCAUGUGUAUAAAUUAUUGAUCAUGUUGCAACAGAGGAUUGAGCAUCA` the bound/input enrichment was 24.7 ratio.
`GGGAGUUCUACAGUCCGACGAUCGUUUUUAAUGAUGGCAGUUCCAGGGAGCUGGUGAACCUCACUGGUACAAUCCCAGUGCGUUAUCGAGGUAAUAUAUAUAAUAUUCCAAUAUGCCUGUGGCUGCUGGACACAUACCCAUAUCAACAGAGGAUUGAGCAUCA` gave a bound/input enrichment of 0.195 ratio.
For `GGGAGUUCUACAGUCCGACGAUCGCCAUUGGUCUUAUGGGUUAUAGGUUGAGUCCUCAAACAUUAACUACUAUUGUUAAACGUUAUAGCAAGAAUGGCAGAAUUUUCUUUGAUGAUUAUGUUGCUUGCUGUGUGAAGCUUCGACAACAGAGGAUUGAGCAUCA`, the bound/input enrichment was 0.168 ratio.
For `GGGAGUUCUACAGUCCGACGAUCACAAUUGCUGUAAAACAAAGGUAAUUACUUAAGUGGUGGUGCAGGCCUUUAAUCCCAGCACUUAGAAGGCAGAGGAAGGUGGAUCUCUGAGAUCAAGGCCAGCCUGGUCUACACAGUGAGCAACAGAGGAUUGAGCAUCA`, the bound/input enrichment was 0.264 ratio.
With `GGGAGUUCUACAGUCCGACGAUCCCUGGACUGACUGACCAGAAGACUGUCCCAACACCAACAGUACCUUCAGGUUCCUUCUCACAUAGAGAGAAGCCCAGUAUUUUCUAUCAACAGGAGUGGCCAGAUAGUUAUGCAACUGAACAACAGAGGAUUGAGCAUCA` the bound/input enrichment was 0.504 ratio.
The bound/input enrichment of `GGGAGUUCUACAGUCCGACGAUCAGAGCUAGAAGAUGGUCCCGGUCCAGAUCCCGCUCUCGAUCGCCAUCAAGAUUAAGAACAAAAAGUAAGAGUUCAUCGUUUGGUAGAAAUGAGAGAGAUAAUUACUCUCCUCGGUGGAAGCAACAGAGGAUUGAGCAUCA` is reported as 0.32 ratio.

Block 3
Target: RNA binding protein fox-1 homolog 2, RRM domain, GST-SBP tag (RBFOX2, Homo sapiens, UniProt O43251-10, residues 100-194)
Technique: RNA Bind-n-Seq
Molecule type: RNA
Sample: in vitro
Tested at: 365 nM
Notes: natural RNA segment, single round, ends assumed
Baseline: no-protein control
Direction: higher = stronger binding
Target sequence (chain): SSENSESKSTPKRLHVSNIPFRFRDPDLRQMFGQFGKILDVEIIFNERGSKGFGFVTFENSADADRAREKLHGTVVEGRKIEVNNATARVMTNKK
`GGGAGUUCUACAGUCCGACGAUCCAGACCUCACCUUUGACUGCCAAAAUGACAGCACCCACCACCAUGAUGAUUGUCUGCAGGGCAUCUGUGUAUAUCACAGUGGCCAGGCCCCCUGCAAGAAACAAGGCUGCUGGAAUUCUCGGGUGCCAA` — result for “RBNS enrichment (R)”: 0.746.
Under “RBNS enrichment (R)”, `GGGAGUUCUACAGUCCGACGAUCUGACAUAGCCUUUGUGCAAAAAAAAAAAAAAAAAAAAAGAAAAAGAAAAAAAGAAAAAUAUAUUGUCCAUACUGUAAAUAAGUGUAUGCUUAUUUAUUUGGGGGGAAAACUGGAAUUCUCGGGUGCCAA` is recorded as 1.5.
For `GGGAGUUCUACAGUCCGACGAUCAAGCAGAACUCCAUCCUCACCUCUAUUUUGAGCUUAGUGCUUUAUUUCAGUAUGAGGAAAAACAACAACAAACCGAAGUGUGCUUUCCGUCCUUUCAGAGGACAACUGUCUGGAAUUCUCGGGUGCCAA`, “RBNS enrichment (R)” read 0.31.
`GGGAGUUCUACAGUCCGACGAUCGCCCAAGAUUUUUUAUUUGAGGGUUUUUUGUUUUUUAAAAAAAAAUUGAACAAAGACUACUAAUGACUUUGUUUGAAUUAUCCACAUGAAAAUAAAGAGCCAUAGUUUCAUGGAAUUCUCGGGUGCCAA` — result for “RBNS enrichment (R)”: 0.81.
For `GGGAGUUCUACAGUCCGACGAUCAAGCCUGUCUGUCUCUUCACCAGUGGAGUGAGUGCAGCAGUUAGAAAGAGAAGCAAUAUUGUGCAACUGGUGCAGUGGUGAGUUAAUCAUAGUGUAUAACCUUGUGUUCAUGGAAUUCUCGGGUGCCAA`, “RBNS enrichment (R)” read 0.462.
Under “RBNS enrichment (R)”, `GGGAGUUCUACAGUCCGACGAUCAUAAGCUUACCAGUGACCUUGUUCACUUUGAGUCAGGGAACGUAUUUGUAAAAUUAACACUAAAGAUGCAUGUGAGUCAUUUCACCAAAAGGAACUCUAUUAAUAAGCUAUGGAAUUCUCGGGUGCCAA` is recorded as 4.01.
Under “RBNS enrichment (R)”, `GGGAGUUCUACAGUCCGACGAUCUGGCCGCUGAGUGGCAGGGGACAGGAGUCCACUUUGUUUCGUGGGGAGGUCUAAUCUAGAUAUCGACUUGUUUUUGCACAUGUUUCCUCUAGUUCUUUGUUCAUAGCCCAUGGAAUUCUCGGGUGCCAA` is recorded as 0.434.
For `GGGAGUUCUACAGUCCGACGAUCCUGUAGGUGAUUCUUGACUGUGGGGAUUGGAAUUUGAGGCAGAAGUUACCAUCCCUACUACAUUUUUUAAAGUUGGUAGCACAAAUGCUUUUUAUUCUAUGAAAACAAUCUGGAAUUCUCGGGUGCCAA`, “RBNS enrichment (R)” read 0.958.

Block 4
Target: Interferon regulatory factor 5, full length, phosphomimetic (IRF5, Homo sapiens, UniProt Q13568-2, residues 1-514, K96S/S451D/S453D/S456D/S462D)
Technique: protein-binding microarray
Molecule type: double-stranded DNA, one strand shown
Sample: in vitro
Tested at: 250 nM
Notes: 60-bp whole probe
With: salmon DNA 0.4 mg/ml
Baseline: random background probes
Direction: higher = stronger binding
All sequences stand within: GCCTAGCAC … GTCTTGATTCGCTTGACGCTGCTG
`TTAGGACTGGACTCTCGGTTAGTGCTA` has a log fluorescence of 0.0352 z-score.
`TCACAGATGTTTTTCATACTGTGCTAG` has a log fluorescence of 0.794 z-score.
`TTAGGTTTCCTACTTCTTTAGTGCTAG` gave a log fluorescence of 0.772 z-score.
`TAAAGCATTACTTTAGGTTCGTGCTAG` has a log fluorescence of -0.0211 z-score.
`TTAAGTTTCGGGTTTCGGTTAGTGCTA` gave a log fluorescence of 10.2 z-score.
`TTAGGTATCGGTTTTGGTTAGTGCTAG` has a log fluorescence of 8.17 z-score.
With `TGATCTCTGGTCTTTGTCAGGTGCTAG` the log fluorescence was 0.111 z-score.
`TGAAAACTAAGTTTATTAGAGTGCTAG` gave a log fluorescence of 1.34 z-score.
With `TTAGGACTGGACTATTGGTTAGTGCTA` the log fluorescence was 0.226 z-score.
`TTAGGTTTCGGTATCGGGTAGTGCTAG` gave a log fluorescence of 11 z-score.
`TCAAATTTATAAATAAAACTGTGCTAG` gave a log fluorescence of 0.462 z-score.
The log fluorescence of `GACGGTATCCTTATCCAGACGTGCTAG` is reported as -0.00367 z-score.
`TTAGGACTGCTTATACTTTAGTGCTAG` gave a log fluorescence of 0.0589 z-score.
The log fluorescence of `TTAGGACTGCTACTCCTTTAGTGCTAG` is reported as -0.282 z-score.
For `TCAAGTTCATGTTTTGGACTGTGCTAG`, the log fluorescence was 0.0435 z-score.
`GACAATTTCGGGACTGGAGACGTGCTA` has a log fluorescence of 3.99 z-score.
`TTCTTTACCACATTCTCTGCGTGCTAG` has a log fluorescence of 0.621 z-score.
`TTAGATTTCAGTCTTGATTAGTGCTAG` gave a log fluorescence of 1.89 z-score.
`TTAGGAGTGGACTTTCGGTTAGTGCTA` has a log fluorescence of 9.58 z-score.
